Experimental data gathered from unrelated publications.
Protocols differ between the studies behind these lines. “And” joins repeats or separate records; there may be more than shown. Converted amounts (≈) assume the structure as drawn.

SMILES	tested on	assay	system	setting	how to read	endpoint	result
CN1CCN(c2ncc(-c3ccc4c(Nc5ncccn5)cnnc4c3)cn2)CC1	Schistosoma mansoni	–	adult worms	10 µM, 48 h	direction not given	phenotypic severity score	0
N#Cc1ccn2c(-c3ccncc3)c(-c3ccc(F)cc3)nc2c1	–	kinase binding, competitor, MIB/MS competition, item: KIN2	Candida albicans cell lysate	1 µM	relative to: DMSO	log2 fold change	-0.202
CN1CCN(c2ncc(-c3ccc4nncc(Nc5ncccn5)c4c3)cn2)CC1	Schistosoma mansoni	–	adult worms	10 µM, 24 h	direction not given	phenotypic severity score	1
CC(C)NCC(O)c1ccc(O)c(O)c1 (centres unmarked)	–	–	ventricular cardiomyocytes, C57BL/6 mouse	dose not given, 0.168 s	–	sarcomere length	1.52 µm
CCC[C@H](N[C@@H](C)C(=O)N1[C@H](C(=O)O)C[C@@H]2CCCC[C@@H]21)C(=O)OCC	Nedd8-cullin1 interaction	neddylation, AlphaScreen	–	100 µM	–	inhibition	4.6%
CC1=C(Cn2cc(CN3CCOCC3)nn2)C(=O)c2ccccc2C1=O	Schistosoma mansoni	–	adult worms	10 µM, 48 h	–	killing	44.4%
c1ccc(CN(CC2=NCCN2)c2ccccc2)cc1	Nedd8-cullin1 interaction	neddylation, AlphaScreen	–	100 µM	–	inhibition	-3.8%
CC1=C(Cc2cn(CCN3CCC(F)(F)CC3)nn2)C(=O)c2ccccc2C1=O	Schistosoma mansoni	–	adult worms	10 µM, 24 h	–	killing	37%
CN(C)c1ccc(O)c2c1C[C@H]1C[C@H]3[C@H](N(C)C)C(O)=C(C(N)=O)C(=O)[C@@]3(O)C(O)=C1C2=O	Brugia malayi	–	SCID mouse, peritoneal cavity	dose not given, 6 weeks post-treatment, dosing x28d	–	median microfilaria count	0 microfilariae per mouse
Cn1cc(-c2ccc(-c3cncc(Cl)c3N3CCC4(CCNC4=O)CC3)cc2)cn1	COLO 205	microarray, item: PAH	–	concentration not given, 2 h	relative to: untreated cells	fold change in expression	-1.32
C[C@H](Oc1ccc(Br)cc1-c1ccon1)C(=O)O	–	muscle velocity recovery cycles	human, tibialis anterior muscle	400 mg twice daily, multiple doses, frequency ramp, first response at 15 Hz	relative to: placebo	peak amplitude change	-1.64%
CC1=C(Cc2cn(CCO)nn2)C(=O)c2ccccc2C1=O	Schistosoma mansoni	–	adult worms	10 µM, 24 h	–	killing	44.9%
C1CNCCN1.COc1cc(/C=C/C(=O)O)ccc1O.COc1cc(/C=C/C(=O)O)ccc1O	Nedd8-cullin1 interaction	neddylation, AlphaScreen	–	100 µM	–	inhibition	-23.1%
COc1ccc(Nc2cnnc3cc(-c4ccc(S(=O)(=O)N5CCN(C)CC5)cc4)ccc23)cc1Cl	Schistosoma mansoni	–	adult worms	10 µM, 48 h	direction not given	phenotypic severity score	4
C[N+](C)(C)NCCC(=O)[O-]	Nedd8-cullin1 interaction	neddylation, AlphaScreen	–	100 µM	–	inhibition	-16.5%
OC(CCN1CCCCC1)(c1ccccc1)C1CC2C=CC1C2 (centres unmarked)	–	resting-state EEG	healthy elderly humans	oral, 2 mg, eyes closed, LS mean	relative to: baseline	change, Theta power, EEG Pz-O2	-17.9%
C[C@H]1c2cccc(O)c2C(=O)C2=C(O)[C@]3(O)C(=O)C(C(N)=O)=C(O)[C@@H](N(C)C)[C@@H]3[C@@H](O)[C@@H]21	Brugia malayi	–	SCID mouse	x42d dosing, 6 weeks post-treatment	–	mice with adult worms	89%
Cc1c(CN2CCN(C(=O)[C@H](C)O)CC2)sc2c(N3CCOCC3)nc(-c3cnc(N)nc3)nc12	phospho-Akt	Akt phosphorylation, inhibitor	human patients with prostate tumour, plasma	PK-PD study	–	IC50	8.3 ng/mL (≈ 0.0166 µM)

SMILES	tested on	assay	system	setting	how to read	endpoint	result
[Ca+2]	human TRPA1 W1103A	ion current, two-electrode voltage clamp	Xenopus oocytes	+80 mV, with: AITC	–	desensitization time constant	145 s and 155 s and 299 s and 217 s and 192 s
CN1CCN(S(=O)(=O)c2ccc(-c3ccc4nncc(Nc5ncccn5)c4c3)cc2)CC1	Schistosoma mansoni	–	adult worms	10 µM, 24 h	direction not given	phenotypic severity score	0
O=C(O)C[C@H](O)C[C@H](O)/C=C/c1c(C2CC2)nc2ccccc2c1-c1ccc(F)cc1	Nedd8-cullin1 interaction	neddylation, AlphaScreen	–	100 µM	–	inhibition	0.5%
O=C(O)CNC(=O)Cc1ccccc1	–	–	ventricular cardiomyocytes, C57BL/6 mouse	dose not given, 0.044 s	–	sarcomere length	1.72 µm
COc1ccc(Nc2cnnc3ccc(-c4cnc(N5CCN(C)CC5)nc4)cc23)cc1Cl	Schistosoma mansoni	–	adult worms	10 µM, 24 h	direction not given	phenotypic severity score	0
CC1=C(Cc2cn(CCN3CCNCC3)nn2)C(=O)c2ccccc2C1=O	Schistosoma mansoni	–	adult worms	10 µM, 48 h	–	killing	50%
NC(=O)c1cnc2[nH]ccc2c1N[C@@H]1[C@@H]2CC3C[C@H]1C[C@@](O)(C3)C2	–	CD4+ naive T cells, flow cytometry	Caucasian humans, peripheral blood	200 mg single dose	relative to: baseline	percent change	-1.58%
CC1=C(Cc2cn(CC#N)nn2)C(=O)c2ccccc2C1=O	Schistosoma mansoni	–	adult worms	10 µM, 24 h	–	killing	38%
COc1ccc(Nc2cnnc3ccc(-c4ccc(N5CCN(C)CC5)cc4)cc23)cc1	Schistosoma mansoni	–	adult worms	10 µM, 24 h	direction not given	phenotypic severity score	4
CC1=C(Cn2ccnn2)C(=O)c2ccccc2C1=O	Schistosoma mansoni	–	adult worms	10 µM, 72 h	–	killing	43.8%
COC(=O)CCc1ccc(OCC(O)CNC(C)C)cc1 (centres unmarked)	Nedd8-cullin1 interaction	neddylation, AlphaScreen	–	100 µM	–	inhibition	2.3%
CC1=C(Cn2cc(CN3CCN(C(=O)OC(C)(C)C)CC3)nn2)C(=O)c2ccccc2C1=O	Schistosoma mansoni	–	adult worms	10 µM, 72 h	–	killing	46.2%
CC(C)(C)NCC(O)COc1cccc2c1CCC(=O)N2 (centres unmarked)	Nedd8-cullin1 interaction	neddylation, AlphaScreen	–	100 µM	–	inhibition	60.9%
COc1ccc(Nc2cnnc3cc(-c4cnc(N5CCN(C)CC5)nc4)ccc23)cc1Cl	Schistosoma mansoni	–	adult worms	10 µM, 24 h	direction not given	phenotypic severity score	1
CC1=C(Cc2cn(CCN3CCN(C(=O)OC(C)(C)C)CC3)nn2)C(=O)c2ccccc2C1=O	Schistosoma mansoni	–	adult worms	25 µM, 72 h	–	killing	49.9%
N=C(N)NC(=O)Cc1c(Cl)cccc1Cl	Nedd8-cullin1 interaction	neddylation, AlphaScreen	–	100 µM	–	inhibition	-36.3%
Cc1ccc(Nc2cnnc3ccc(-c4ccc(N5CCN(C)CC5)cc4)cc23)cn1	Schistosoma mansoni	–	adult worms	10 µM, 5 h	direction not given	phenotypic severity score	1

For quick reference, copied from above:
SMILES	tested on	assay	system	setting	how to read	endpoint	result
CC1=C(Cc2cn(CCN3CCNCC3)nn2)C(=O)c2ccccc2C1=O	Schistosoma mansoni	–	adult worms	10 µM, 48 h	–	killing	50%
O=C(O)CNC(=O)Cc1ccccc1	–	–	ventricular cardiomyocytes, C57BL/6 mouse	dose not given, 0.044 s	–	sarcomere length	1.72 µm
